# Experimental data pooled from the literature.
# Protocols differ between the studies behind these lines. ± gives the spread as reported.
Compound,test,system,conditions,scale,quantity,value
OCc1nc2ccc(NCc3ccc(C(F)(F)F)cc3)cc2[nH]1,,"Balb/c mice, male, plasma","oral, 10 mg/kg",,terminal elimination rate constant,5.28e-05 ± 2.78e-05 s⁻¹
CN(CCC(=O)O)C(=O)c1ccc2c(c1)CC[C@@H]1[C@@H]2CC[C@]2(C)C(c3cncc(F)c3)=CC[C@@H]12,,"premenopausal women, endometriosis pain, serum","60 mg twice daily, visit 6, median",baseline: baseline,indirect bilirubin change,0.37 mg/dL
C=CC(=O)N1CCC(Oc2cc3c(Nc4ccc(Cl)c(Cl)c4F)ncnc3cc2OC)CC1,,"Sprague-Dawley rat, male, plasma","oral, 2 mg/kg, with: vehicle pretreatment",,MRT(0-t),4.9 ± 0.62 h
O=S(=O)(O)Oc1ccc(CCO)cc1,,human CSF,"concentration not given, mean",,CSF concentration,not detected
CNC(=O)c1cc(Oc2ccc(NC(=O)Nc3cc(C(C)(C)C)nn3-c3ccc4ncccc4c3)c(F)c2)ccn1,,patients,"oral, dose not given, cycles 1 and 2, Low AUC subgroup",,patients with grade 3 cardiac disorders,7%
CC[C@H](C)[C@H](NC(=O)[C@H](Cc1ccccc1)NC(=O)[C@H](CCC(=O)O)NC(=O)[C@H](CCCCNC(=O)COCCOCCNC(=O)COCCOCCNC(=O)CC[C@H](NC(=O)CCCCCCCCCCCCCCCCC(=O)O)C(=O)O)NC(=O)[C@H](C)NC(=O)[C@H](C)NC(=O)[C@H](CCC(N)=O)NC(=O)CNC(=O)[C@H](CCC(=O)O)NC(=O)[C@H](CC(C)C)NC(=O)[C@H](Cc1ccc(O)cc1)NC(=O)[C@H](CO)NC(=O)[C@H](CO)NC(=O)[C@@H](NC(=O)[C@H](CC(=O)O)NC(=O)[C@H](CO)NC(=O)[C@@H](NC(=O)[C@H](Cc1ccccc1)NC(=O)[C@@H](NC(=O)CNC(=O)[C@H](CCC(=O)O)NC(=O)C(C)(C)NC(=O)[C@@H](N)Cc1cnc[nH]1)[C@@H](C)O)[C@@H](C)O)C(C)C)C(=O)N[C@@H](C)C(=O)N[C@@H](Cc1c[nH]c2ccccc12)C(=O)N[C@@H](CC(C)C)C(=O)N[C@H](C(=O)N[C@@H](CCCNC(=N)N)C(=O)NCC(=O)N[C@@H](CCCNC(=N)N)C(=O)NCC(=O)O)C(C)C,12-lead Holter ECG,healthy humans,"subcutaneous, 1.5 mg once weekly, 27 h, steady state",baseline: placebo,QT change from baseline,-21.5 ms
Cn1cc(Nc2nccc(-c3ccc4c(c3)CN(C3COC3)CC[C@H]4NC(=O)c3cn(C(C)(C)C)nn3)n2)cn1,,"human, whole blood","50 mg twice daily, day 7",baseline: pre-dose baseline,non-switched memory B cell change,52.2%
CCn1cc(C(=O)N2CCOCC2)c(=O)c2cc(NC3Cc4ccccc4C3)cnc21,,"human, fed","oral suspension, 600 mg/day twice daily, day 1, arithmetic mean",,half-life,3.43 h
O=C(Nc1nc2cccc(-c3ccc(CN4CCS(=O)(=O)CC4)cc3)n2n1)C1CC1,item: gingival bleeding,human rheumatoid arthritis patients,"oral, 200 mg once daily, 4 weeks, regardless of relatedness",,treatment-emergent adverse events,0%
C[C@@H]1CN(c2c(F)c(N)c3c(=O)c(C(=O)O)cn(C4CC4)c3c2F)C[C@H](C)N1,,"male Hartley guinea pigs, anaesthetized","intravenous, 30 mg/kg over 10 min, after infusion",,heart rate,197 ± 0.6 beats/min
O=C(O)[C@H]1O[C@@H](Oc2c(-c3ccc(O)cc3)oc3cc(O)cc(O)c3c2=O)[C@H](O)[C@@H](O)[C@@H]1O,,human CSF,"concentration not given, mean",,CSF concentration,not detected
CC(C)n1c(Nc2cccnc2)nc2cnc(Nc3ccc(N4CCN(C)CC4)cc3)nc21,,healthy male humans,"oral, dose not given, drug interaction study, all arms",,incidence of hypertriglyceridemia TEAE,11.9%
CCN1/C(=C/C(C)=O)Sc2ccc(F)cc21,,cynomolgus monkey,"oral, 10 mg/kg, 2 h post-dose",,QT interval,239 ± 23 ms
C=CCn1c(=O)c2cnc(Nc3ccc(N4CCN(C)CC4)cc3)nc2n1-c1cccc(C(C)(C)O)n1,,human,"oral, 150 mg twice daily, cycle 1 day 17, with: durvalumab 1500 mg IV",geometric mean,AUC(0-t),4.88 µM·h
CCN1CCN(Cc2ccc(Nc3ncc(F)c(-c4cc(F)c5nc6n(c5c4)[C@H](C)CCC6)n3)nc2)CC1,,"human, plasma","100 mg multiple dosing, mean",,AUC(0-tau),3320 ng·h/mL
CC(C)NCC(O)c1ccc(NS(C)(=O)=O)cc1 (racemic),,"male Hartley guinea pigs, anaesthetized","intravenous, 1 mg/kg group, baseline before infusion",,heart rate,246 ± 0.6 beats/min
NC1(C(=O)N[C@@H](CCO)c2ccc(Cl)cc2)CCN(c2nc[nH]c3nccc2-3)CC1,,metastatic CRPC patients,"480 mg b.i.d., grade 3 to 4, treatment-related, with: enzalutamide 160 mg daily",,incidence of Nausea,0%
Cc1nc2cccc(OCC(C)(C)C(=O)NC(C)C)c2c(N)c1C(=O)O,,"male Sprague-Dawley rat, plasma","dietary, 30 mg/kg/day",baseline: day 90 over day 7,Cmax ratio,2.54
COc1cc(Nc2ncc3c(n2)-c2ccc(Cl)cc2C(c2c(F)cccc2OC)=NC3)ccc1C(=O)O,,cancer patients,"oral, dose not given, grade 3 any attribution, with: pembrolizumab",,patients with skin hyperpigmentation,4%
COc1cc2nccc(Oc3ccc(NC(=O)c4cc5c(n(-c6ccccc6)c4=O)CCCC5=O)nc3)c2cc1OC,,"human, relapsed/refractory AML","oral, dose not given, all dose groups combined",,patients with serious TEAEs,85%
Cc1ccc([C@@H]2O[C@H](CO)[C@@H](O)[C@H](O)[C@H]2O)cc1Cc1ccc(-c2ccc(F)cc2)s1,,Japanese type 2 diabetes patients,"25 mg, day 17, 24 h urine collection",baseline: baseline,urinary chloride excretion change,-59.3 mEq
CNc1ccc(-c2nc3ccc(O)cc3s2)cc1 [carbon-11 labelled],ex vivo biodistribution,"normal B6SJL mice, adipose","intravenous, 30 min",,uptake,0.406 ± 0.061 SUV
CC(C)(C)c1ccc(O)c(CN(Cc2cc(C(C)(C)C)ccc2O)C2CCC(NC(N)=O)CC2)c1 (centres unmarked),,"C57BL/6 mice, male, plasma","intraperitoneal, 5 mg/kg, single dose",,terminal elimination rate constant,7.78e-05 s⁻¹
C[C@@H](NC(=O)N1C(=O)[C@H](Cc2ccnc(N)c2)[C@H]1C(=O)O)C1CCCCC1,UPLC-MS/MS,"healthy adult Chinese volunteers, plasma","continuous intravenous infusion, 0.3 mg/kg/h, day 1 of 5-day infusion, median",,time to steady state,1.5 h
Cc1cc(OCCOCCC(F)(F)P(=O)(O)O)ccc1CCc1cnc2c(N)nc3cc(CCC(=O)O)ccc3c2c1,,"human, serum","intratumoral, 200 µg every 2 weeks, cycle 2 day 15",,AUC(tau),20.1 ng·h/mL
O=C(O)CCC(=O)O.[2H]C([2H])([2H])Oc1cc(C)c2[nH]ccc2c1CN1CC[C@@H](C2CC2)C[C@H]1c1ccc(C(=O)O)cc1,multiple ascending dose,healthy Chinese subjects,300 mg once daily,,subjects with increased creatinine TEAE,0%
Cl.[2H]C([2H])([2H])CC(=O)c1cnc(NC(=O)C2CC2)cc1Nc1cccc(-c2ncn(C([2H])([2H])[2H])n2)c1OC,geometric mean,human,"oral, 10 mg once daily, day 7, fasted, liquid, multiple dose",,AUC(0-inf),1110 ng·h/mL
COc1ccc([C@@H](O)c2cc(-c3ncnc4cc(N5CCOCC5)ccc34)c(F)cc2Cl)nn1,,locally advanced rectal cancer patients,"250 mg, with: capecitabine and radiotherapy",,anaemia TEAE incidence,67%
CO[C@H]1/C=C/O[C@@]2(C)Oc3c(C)c(O)c4c(O)c(c(/C=N/N5CCN(C)CC5)c(O)c4c3C2=O)NC(=O)/C(C)=C\C=C\[C@H](C)[C@H](O)[C@@H](C)[C@@H](O)[C@@H](C)[C@H](OC(C)=O)[C@@H]1C,,healthy human volunteers,"oral, 600 mg, itraconazole cohort, with: gepotidacin 1500 mg",,incidence of nervous system disorders,6%
CCOc1c([C@H](C)n2nc(C)c3c(N)ncnc32)cc(Cl)c(F)c1[C@@H]1CNC(=O)C1,ECG,previously treated B-cell malignancy patients,"oral, 20 mg once daily, baseline below thresholds",,observations with PR ≤200 ms,96%
CCN1CCN(Cc2ccc(NC(=O)c3ccc(C)c(NC(=O)c4cncc(-c5cccs5)c4)c3)cc2C(F)(F)F)CC1,LC-MS/MS,"C57BL/6 mouse, plasma","intraperitoneal, 20 mg/kg single dose, 24 h",,mean plasma concentration,6 ng/mL
CNC(=O)c1ccc(-c2cnc3ncc(Cc4ccc5ncccc5c4)n3n2)cc1F,,Japanese patients,"oral, 400 mg, any grade",,AST increased patients,11%
COc1cc(C(=O)N2CCC3(CC2)CC(=O)c2c(cnn2C(C)C)C3)cc(-c2ccc(C(=O)O)cc2)n1,item: direct LDL cholesterol,"human, fasting serum","3 mg every 12 h, day 13, adjusted geometric mean",baseline: baseline,percentage change from baseline,2%
CNC(=O)c1ccc(-c2cnc3ncc(Cc4ccc5ncccc5c4)n3n2)cc1F,item: Dizziness,gastric cancer patients,"oral, 600 mg twice daily, expansion cohort, grade 3-4",,patients with adverse event,0%
COc1ccc(C2CC(=O)c3c(O)cc(OS(=O)(=O)O)cc3O2)cc1O (centres unmarked),,human CSF,"concentration not given, mean",,CSF concentration,not detected
COc1cc(C(=O)NC2CCN(C)CC2)c(F)cc1Nc1ncc(C(F)(F)F)c(Oc2cccc3c2C(=O)N(C)C3)n1,,"human, Taiwanese, plasma","oral, 200 mg single dose, geometric mean",,AUC(0-tau) cycle 1,14.5 µM·h
O=C(COc1ccc(Cl)cc1)NC12CC(c3nnc([C@H]4C[C@@H](OC(F)(F)F)C4)o3)(C1)C2,item: postural dizziness,human,"oral, 100 mg once daily, 14 days",,adverse event incidence,14.3%
CC(=O)Oc1ccccc1C(=O)O,,"male Hartley guinea pigs, anaesthetized","intravenous, 3 mg/kg over 10 min, after infusion",,heart rate,218 ± 0.4 beats/min
CC(C)(C(=O)N1CCOc2c(C#N)cncc2C1)C(F)F,item: renal and urinary disorders,"human, both sexes","oral, 15 mg twice daily, 14 days, multiple ascending dose",,subjects with TEAE,0%
CN(CCC#N)C1CCN(C(=O)Cn2cc(NC(=O)c3cnn4cccnc34)c(-c3cc(Cl)ccc3OC(F)F)n2)CC1,,"human, single ascending dose","5 mg, day 4",baseline: baseline,reticulocyte count change,3.3 10⁹/L
CCN(Cc1ccccc1)Cc1ccc(CNC(=O)c2csc3nc[nH]c(=O)c23)cc1,haemolysis,human red blood cells,"1 h, 37 °C",,EC50,> 100 µM
CN(C(=O)n1cnc(-c2cccnc2)c1)C1CCCCC1,,"Wistar rat, pons","oral, 10 mg/kg, 24 h, single dose",,tissue concentration,8 ± 0.1 ng/g
COc1cc(C2=CCCCc3c2ccc(OC)c3OC(C)c2cnc([N+](=O)[O-])n2C)cc(OC)c1OC (centres unmarked),"non-enzymatic, no POR",phosphate buffer,"24 h, pH 7.4",,parent drug release,0%
CNCc1ccc(-c2[nH]c3cc(F)cc4c3c2CCNC4=O)cc1,,patients,"oral, 840 mg twice daily, all grades",,anaemia incidence,33.3%
